{"data": "Results from different studies", "B1": "TENT2 (Homo sapiens, UniProt Q6PIY7); chain MFPNSILGRPPFTPNHQQHNNFFTLSPTVYSHQQLIDAQFNFQNADLSRAVSLQQLTYGNVSPIQTSASPLFRGRKRLSDEKNLPLDGKRQRFHSPHQEPTVVNQIVPLSGERRYSMPPLFHTHYVPDIVRCVPPFREIAFLEPREITLPEAKDKLSQQILELFETCQQQISDLKKKELCRTQLQREIQLLFPQSRLFLVGSSLNGFGTRSSDGDLCLVVKEEPCFFQVNQKTEARHILTLVHKHFCTRLSGYIERPQLIRAKVPIVKFRDKVSCVEFDLNVNNIVGIRNTFLLRTYAYLENRVRPLVLVIKKWASHHQINDASRGTLSSYSLVLMVLHYLQTLPEPILPSLQKIYPESFSPAIQLHLVHQAPCNVPPYLSKNESNLGDLLLGFLKYYATEFDWNSQMISVREAKAIPRPDGIEWRNKYICVEEPFDGTNTARAVHEKQKFDMIKDQFLKSWHRLKNKRDLNSILPVRAAVLKR", "B2": "SLC15A1 (Homo sapiens, UniProt P46059); chain MGMSKSHSFFGYPLSIFFIVVNEFCERFSYYGMRAILILYFTNFISWDDNLSTAIYHTFVALCYLTPILGALIADSWLGKFKTIVSLSIVYTIGQAVTSVSSINDLTDHNHDGTPDSLPVHVVLSLIGLALIALGTGGIKPCVSAFGGDQFEEGQEKQRNRFFSIFYLAINAGSLLSTIITPMLRVQQCGIHSKQACYPLAFGVPAALMAVALIVFVLGSGMYKKFKPQGNIMGKVAKCIGFAIKNRFRHRSKAFPKREHWLDWAKEKYDERLISQIKMVTRVMFLYIPLPMFWALFDQQGSRWTLQATTMSGKIGALEIQPDQMQTVNAILIVIMVPIFDAVLYPLIAKCGFNFTSLKKMAVGMVLASMAFVVAAIVQVEIDKTLPVFPKGNEVQIKVLNIGNNTMNISLPGEMVTLGPMSQTNAFMTFDVNKLTRINISSPGSPVTAVTDDFKQGQRHTLLVWAPNHYQVVKDGLNQKPEKGENGIRFVNTFNELITITMSGKVYANISSYNASTYQFFPSGIKGFTISSTEIPPQCQPNFNTFYLEFGSAYTYIVQRKNDSCPEVKVFEDISANTVNMALQIPQYFLLTCGEVVFSVTGLEFSYSQAPSNMKSVLQAGWLLTVAVGNIIVLIVAGAGQFSKQWAEYILFAALLLVVCVIFAIMARFYTYINPAEIEAQFDEDEKKNRLEKSNPYFMSGANSQKQM", "B3": "enzyme (Bacillus subtilis, UniProt P39639); chain MKTKEDMQELYFPTPKLIEWENGVRQYSTVRGDTEVLMSYVPPHTNVEPHQHKEVQIGMVVSGELMMTVGDVTRKMTALESAYIAPPHVPHGARNDTDQEVIAIDIKRLKADETYTSPEDYFLDIFKTRDLLPGMEVTFFVEDWVEIMLAKIPGNGGEMPFHKHRNEQIGICIGGGYDMTVEGCTVEMKFGTAYFCEPREDHGAINRSEKESKSINIFFPPRYNRAKAKKMKADE", "B4": "PPIP5K2 (Homo sapiens, UniProt O43314); chain MSEAPRFFVGPEDTEINPGNYRHFFHHADEDDEEEDDSPPERQIVVGICSMAKKSKSKPMKEILERISLFKYITVVVFEEEVILNEPVENWPLCDCLISFHSKGFPLDKAVAYAKLRNPFVINDLNMQYLIQDRREVYSILQAEGILLPRYAILNRDPNNPKECNLIEGEDHVEVNGEVFQKPFVEKPVSAEDHNVYIYYPTSAGGGSQRLFRKIGSRSSVYSPESNVRKTGSYIYEEFMPTDGTDVKVYTVGPDYAHAEARKSPALDGKVERDSEGKEVRYPVILNAREKLIAWKVCLAFKQTVCGFDLLRANGQSYVCDVNGFSFVKNSMKYYDDCAKILGNIVMRELAPQFHIPWSIPLEAED", "note": "Each line is one published result; not all experiments were run side by side.", "UniProt P19525, sequence (whole entry, unmodified, looked up)": "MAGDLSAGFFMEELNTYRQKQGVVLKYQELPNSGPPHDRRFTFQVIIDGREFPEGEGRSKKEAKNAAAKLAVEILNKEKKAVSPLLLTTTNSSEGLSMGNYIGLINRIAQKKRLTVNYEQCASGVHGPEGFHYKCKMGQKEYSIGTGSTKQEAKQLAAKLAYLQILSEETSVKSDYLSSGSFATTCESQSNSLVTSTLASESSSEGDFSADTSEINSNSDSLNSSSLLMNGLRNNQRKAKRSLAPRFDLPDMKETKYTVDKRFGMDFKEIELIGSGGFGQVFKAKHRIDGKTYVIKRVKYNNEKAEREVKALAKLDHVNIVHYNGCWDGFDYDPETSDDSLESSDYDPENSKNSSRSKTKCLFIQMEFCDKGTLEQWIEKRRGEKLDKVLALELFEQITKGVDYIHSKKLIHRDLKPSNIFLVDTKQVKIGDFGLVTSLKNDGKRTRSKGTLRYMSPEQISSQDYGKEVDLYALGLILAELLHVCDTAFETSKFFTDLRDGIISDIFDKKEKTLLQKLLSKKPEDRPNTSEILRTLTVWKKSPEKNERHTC", "UniProt P10635, sequence (whole entry, looked up)": "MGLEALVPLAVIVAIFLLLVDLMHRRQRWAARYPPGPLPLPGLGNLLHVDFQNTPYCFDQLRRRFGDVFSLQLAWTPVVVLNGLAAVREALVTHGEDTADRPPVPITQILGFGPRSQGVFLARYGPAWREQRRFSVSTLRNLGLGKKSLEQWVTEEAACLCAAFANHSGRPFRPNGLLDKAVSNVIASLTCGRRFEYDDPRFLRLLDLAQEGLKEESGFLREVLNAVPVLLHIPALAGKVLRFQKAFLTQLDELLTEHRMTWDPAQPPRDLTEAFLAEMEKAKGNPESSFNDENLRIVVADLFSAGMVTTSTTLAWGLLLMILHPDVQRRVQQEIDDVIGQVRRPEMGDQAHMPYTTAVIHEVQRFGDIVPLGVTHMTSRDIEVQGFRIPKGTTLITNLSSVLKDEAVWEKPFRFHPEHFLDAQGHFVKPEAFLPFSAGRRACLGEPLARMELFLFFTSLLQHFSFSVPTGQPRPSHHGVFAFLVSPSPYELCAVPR"}
{"Molecule": "enzyme (Viola tricolor, UniProt A0AA51VI44)", "tested on": "O=C(CC(=O)c1c(O)cc(O)c([C@@H]2O[C@H](CO)[C@@H](O)[C@H](O)[C@H]2O)c1O)c1ccc(O)cc1", "test": "steady-state kinetics", "conditions": "pH 8, 37 °C", "measurement": "Km", "result": "18 µM"}
{"Molecule": "CYP2D6 (Homo sapiens, UniProt P10635)", "tested on": "CC(C)(C)NC(CO)c1cc(Cl)c(N)c(C(F)(F)F)c1", "test": "steady-state kinetics", "conditions": "pH 7.4, 37 °C, not purified", "measurement": "Km", "result": "124 µM"}
{"Molecule": "enzyme (Astragalus mongholicus, UniProt A0A977WMT0)", "tested on": "[H][C@@]1(O[C@H]2CC[C@]34C[C@]35CC[C@@]3(C)[C@@](C)(C[C@H](O)[C@]3([H])[C@@]3(C)CC[C@@]([H])(C(C)(C)O)O3)[C@]5([H])C[C@H](O)[C@@]4([H])C2(C)C)OC[C@@H](O)[C@H](O)[C@H]1O", "test": "steady-state kinetics", "measurement": "Km", "result": "54.2 µM"}
{"Molecule": "B1 (TENT2)", "tested on": "O=c1ccn([C@@H]2O[C@H](COP(=O)(O)OP(=O)(O)OP(=O)(O)O)[C@@H](O)[C@H]2O)c(=O)[nH]1", "test": "steady-state kinetics", "conditions": "pH 8, 37 °C", "measurement": "Km", "result": "169 µM"}
{"Molecule": "B2 (SLC15A1)", "tested on": "CCC(CC)[C@H](NC(C)=O)[C@@H]1[C@H](O)[C@@H](C(=O)N[C@H](C(=O)O)[C@@H](C)CC)C[C@H]1NC(=N)N", "test": "steady-state kinetics", "conditions": "pH 6, not purified", "measurement": "Km", "result": "5920 µM"}
{"Molecule": "B3 (enzyme)", "tested on": "O=C(O)C(=O)C[C@H]1C=C[C@H](O)C=C1", "test": "steady-state kinetics", "conditions": "pH 8.1, apparent", "measurement": "Km", "result": "423 µM"}
{"Molecule": "RNA 1 GGAGGAUGUUAAUUGGCGUGUCUUGUCUGCAACGGUAUUC / RNA 2 GAAUACCGUUGCAGACAAGACACGCCAAUUAACAUCCUCC (dsRNA)", "tested on": "EIF2AK2 1-185 F41W/R107A (Homo sapiens, UniProt P19525)", "test": "tryptophan fluorescence anisotropy", "system": "double-stranded RNA", "conditions": "1 µM", "measurement": "binding", "result": "binds"}
{"Molecule": "enzyme (Trypanosoma brucei, UniProt Q57W34)", "tested on": "CC(=O)N[C@H]1[C@H](O[C@H]2[C@H](O)[C@@H](NC(C)=O)[C@@H](OP(=O)(O)OP(=O)(O)OCC[C@@H](C)CC/C=C(/C)CC/C=C(/C)CCC=C(C)C)O[C@@H]2CO)O[C@H](CO)[C@@H](O[C@@H]2O[C@H](CO)[C@@H](O)[C@H](O)[C@@H]2O)[C@@H]1O", "test": "steady-state kinetics", "conditions": "pH 7.5", "measurement": "Km", "result": "8.8 µM"}
{"Molecule": "B4 (PPIP5K2)", "tested on": "O=P(O)(O)O[C@H]1[C@@H](OP(=O)(O)O)[C@H](OP(=O)(O)O)[C@@H](OP(=O)(O)OP(=O)(O)O)[C@H](OP(=O)(O)O)[C@H]1OP(=O)(O)O", "test": "steady-state kinetics", "measurement": "Km", "result": "0.06 µM"}
{"Molecule": "NTMT1 (Homo sapiens, UniProt Q9BV86)", "tested on": "CC[C@H](C)[C@H](NC(=O)[C@H](CCCNC(=N)N)NC(=O)[C@H](CCCCN)NC(=O)[C@@H]1CCCN1C(=O)[C@@H](N)CO)C(=O)N[C@@H](C)C(N)=O", "test": "steady-state kinetics", "conditions": "1536-well miniaturized", "measurement": "Km", "result": "0.5 µM"}
{"Molecule": "protein (Streptomyces platensis, UniProt A0A023VSF1)", "tested on": "CC(C)=CCC/C(C)=C/CC/C(C)=C/CC/C(C)=C/COP(=O)(O)OP(=O)(O)O", "test": "steady-state kinetics", "conditions": "with: Mg2+", "measurement": "Km", "result": "44 µM"}
